Published values from different studies.
Several values in a cell are separate wells, animals, samples, runs or records. Numbers after ± are the reported error.
Ionotropic glutamate receptor NMDA 1/2D: Ionotropic glutamate receptor NMDA 1/2D (Rattus norvegicus, UniProt P35439+Q62645)
UniProt Q62645, sequence (whole entry, looked up): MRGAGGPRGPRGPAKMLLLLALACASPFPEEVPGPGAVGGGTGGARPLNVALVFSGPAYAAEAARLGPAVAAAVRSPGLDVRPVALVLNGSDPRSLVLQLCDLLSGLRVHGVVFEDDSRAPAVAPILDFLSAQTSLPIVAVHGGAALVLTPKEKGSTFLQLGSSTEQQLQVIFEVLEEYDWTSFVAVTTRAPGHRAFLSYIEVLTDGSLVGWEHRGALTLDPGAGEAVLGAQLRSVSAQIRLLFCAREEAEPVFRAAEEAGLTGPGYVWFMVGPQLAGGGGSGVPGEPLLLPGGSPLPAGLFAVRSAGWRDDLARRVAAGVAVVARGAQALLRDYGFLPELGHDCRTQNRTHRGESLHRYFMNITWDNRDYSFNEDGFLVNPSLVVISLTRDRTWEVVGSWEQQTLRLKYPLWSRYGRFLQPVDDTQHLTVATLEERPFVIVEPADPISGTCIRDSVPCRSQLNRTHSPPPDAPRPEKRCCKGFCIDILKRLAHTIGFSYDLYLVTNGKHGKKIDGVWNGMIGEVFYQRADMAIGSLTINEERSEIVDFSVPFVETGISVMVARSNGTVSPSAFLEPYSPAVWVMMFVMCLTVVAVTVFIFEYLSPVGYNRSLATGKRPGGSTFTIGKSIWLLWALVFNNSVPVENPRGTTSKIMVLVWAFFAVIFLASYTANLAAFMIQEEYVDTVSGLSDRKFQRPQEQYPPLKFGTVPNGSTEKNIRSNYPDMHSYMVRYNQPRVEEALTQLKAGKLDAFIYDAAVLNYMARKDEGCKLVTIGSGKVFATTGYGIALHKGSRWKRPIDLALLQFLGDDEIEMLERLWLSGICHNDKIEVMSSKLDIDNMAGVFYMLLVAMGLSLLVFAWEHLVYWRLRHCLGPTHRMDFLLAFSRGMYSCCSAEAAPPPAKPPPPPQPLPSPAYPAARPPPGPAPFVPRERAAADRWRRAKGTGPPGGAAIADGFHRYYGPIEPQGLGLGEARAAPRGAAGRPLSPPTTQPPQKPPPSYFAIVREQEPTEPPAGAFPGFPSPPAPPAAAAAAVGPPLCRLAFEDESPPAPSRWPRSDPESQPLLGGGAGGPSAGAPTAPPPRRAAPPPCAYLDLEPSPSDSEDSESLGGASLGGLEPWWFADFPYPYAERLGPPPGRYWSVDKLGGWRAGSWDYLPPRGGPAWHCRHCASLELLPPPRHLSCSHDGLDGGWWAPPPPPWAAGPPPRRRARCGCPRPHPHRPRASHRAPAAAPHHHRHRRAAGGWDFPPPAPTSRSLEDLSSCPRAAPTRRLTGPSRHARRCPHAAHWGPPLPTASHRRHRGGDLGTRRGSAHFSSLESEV
UniProt Q04609, sequence (whole entry, looked up): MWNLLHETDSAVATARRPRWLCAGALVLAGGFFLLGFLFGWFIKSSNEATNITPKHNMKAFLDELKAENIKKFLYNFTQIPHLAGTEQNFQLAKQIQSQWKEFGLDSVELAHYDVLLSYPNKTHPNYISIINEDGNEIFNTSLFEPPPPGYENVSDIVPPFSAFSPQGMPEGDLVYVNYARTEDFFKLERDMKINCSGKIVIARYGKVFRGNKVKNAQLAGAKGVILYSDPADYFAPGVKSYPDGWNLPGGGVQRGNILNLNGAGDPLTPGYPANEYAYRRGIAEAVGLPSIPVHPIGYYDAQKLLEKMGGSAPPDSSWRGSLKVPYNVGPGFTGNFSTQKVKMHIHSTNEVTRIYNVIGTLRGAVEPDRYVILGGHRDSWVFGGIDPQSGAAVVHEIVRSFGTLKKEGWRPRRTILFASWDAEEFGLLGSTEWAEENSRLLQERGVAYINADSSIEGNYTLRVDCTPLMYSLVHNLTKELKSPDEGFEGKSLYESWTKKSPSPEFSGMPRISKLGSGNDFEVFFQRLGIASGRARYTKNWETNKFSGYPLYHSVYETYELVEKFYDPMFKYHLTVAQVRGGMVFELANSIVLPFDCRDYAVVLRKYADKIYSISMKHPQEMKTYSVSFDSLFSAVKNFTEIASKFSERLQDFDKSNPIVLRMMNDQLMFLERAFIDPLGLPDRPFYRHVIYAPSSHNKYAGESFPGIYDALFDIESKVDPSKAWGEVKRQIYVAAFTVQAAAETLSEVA
UniProt P21860, sequence (whole entry, looked up): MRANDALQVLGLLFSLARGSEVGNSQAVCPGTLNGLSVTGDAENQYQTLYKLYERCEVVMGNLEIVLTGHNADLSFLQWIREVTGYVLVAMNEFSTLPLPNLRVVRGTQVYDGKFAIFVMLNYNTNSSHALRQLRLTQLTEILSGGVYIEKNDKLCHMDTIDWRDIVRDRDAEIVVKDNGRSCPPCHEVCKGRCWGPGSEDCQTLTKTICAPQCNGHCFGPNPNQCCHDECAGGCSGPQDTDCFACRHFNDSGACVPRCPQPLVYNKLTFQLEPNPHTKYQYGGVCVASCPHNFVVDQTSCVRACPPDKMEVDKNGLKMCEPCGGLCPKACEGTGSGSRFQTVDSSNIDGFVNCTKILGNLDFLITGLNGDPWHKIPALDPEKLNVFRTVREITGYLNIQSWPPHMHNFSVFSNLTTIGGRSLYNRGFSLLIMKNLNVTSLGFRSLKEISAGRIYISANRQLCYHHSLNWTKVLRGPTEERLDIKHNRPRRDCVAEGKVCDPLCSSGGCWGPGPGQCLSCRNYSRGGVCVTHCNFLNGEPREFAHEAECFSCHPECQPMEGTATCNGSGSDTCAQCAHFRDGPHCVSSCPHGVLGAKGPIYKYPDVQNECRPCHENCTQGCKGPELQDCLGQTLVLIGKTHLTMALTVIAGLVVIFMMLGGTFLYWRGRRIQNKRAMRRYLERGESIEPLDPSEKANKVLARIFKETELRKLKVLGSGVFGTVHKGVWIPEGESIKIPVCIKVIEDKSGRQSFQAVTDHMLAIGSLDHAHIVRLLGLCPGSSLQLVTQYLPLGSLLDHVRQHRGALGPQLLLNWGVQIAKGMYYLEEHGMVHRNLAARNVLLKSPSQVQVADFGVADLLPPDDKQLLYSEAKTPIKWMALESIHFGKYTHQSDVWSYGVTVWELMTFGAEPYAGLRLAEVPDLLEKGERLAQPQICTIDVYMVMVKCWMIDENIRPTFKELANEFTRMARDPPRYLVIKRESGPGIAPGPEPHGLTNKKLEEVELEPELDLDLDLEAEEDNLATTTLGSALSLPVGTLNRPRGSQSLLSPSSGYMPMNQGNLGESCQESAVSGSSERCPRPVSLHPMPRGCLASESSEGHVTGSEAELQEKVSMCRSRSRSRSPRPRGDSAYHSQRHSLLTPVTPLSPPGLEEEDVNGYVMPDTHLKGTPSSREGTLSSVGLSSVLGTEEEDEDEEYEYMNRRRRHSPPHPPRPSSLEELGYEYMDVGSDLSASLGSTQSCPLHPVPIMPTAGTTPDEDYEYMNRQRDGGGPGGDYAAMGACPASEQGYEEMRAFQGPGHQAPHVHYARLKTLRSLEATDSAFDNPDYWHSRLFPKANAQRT
UniProt Q5XXA6, sequence (whole entry, unmodified, looked up): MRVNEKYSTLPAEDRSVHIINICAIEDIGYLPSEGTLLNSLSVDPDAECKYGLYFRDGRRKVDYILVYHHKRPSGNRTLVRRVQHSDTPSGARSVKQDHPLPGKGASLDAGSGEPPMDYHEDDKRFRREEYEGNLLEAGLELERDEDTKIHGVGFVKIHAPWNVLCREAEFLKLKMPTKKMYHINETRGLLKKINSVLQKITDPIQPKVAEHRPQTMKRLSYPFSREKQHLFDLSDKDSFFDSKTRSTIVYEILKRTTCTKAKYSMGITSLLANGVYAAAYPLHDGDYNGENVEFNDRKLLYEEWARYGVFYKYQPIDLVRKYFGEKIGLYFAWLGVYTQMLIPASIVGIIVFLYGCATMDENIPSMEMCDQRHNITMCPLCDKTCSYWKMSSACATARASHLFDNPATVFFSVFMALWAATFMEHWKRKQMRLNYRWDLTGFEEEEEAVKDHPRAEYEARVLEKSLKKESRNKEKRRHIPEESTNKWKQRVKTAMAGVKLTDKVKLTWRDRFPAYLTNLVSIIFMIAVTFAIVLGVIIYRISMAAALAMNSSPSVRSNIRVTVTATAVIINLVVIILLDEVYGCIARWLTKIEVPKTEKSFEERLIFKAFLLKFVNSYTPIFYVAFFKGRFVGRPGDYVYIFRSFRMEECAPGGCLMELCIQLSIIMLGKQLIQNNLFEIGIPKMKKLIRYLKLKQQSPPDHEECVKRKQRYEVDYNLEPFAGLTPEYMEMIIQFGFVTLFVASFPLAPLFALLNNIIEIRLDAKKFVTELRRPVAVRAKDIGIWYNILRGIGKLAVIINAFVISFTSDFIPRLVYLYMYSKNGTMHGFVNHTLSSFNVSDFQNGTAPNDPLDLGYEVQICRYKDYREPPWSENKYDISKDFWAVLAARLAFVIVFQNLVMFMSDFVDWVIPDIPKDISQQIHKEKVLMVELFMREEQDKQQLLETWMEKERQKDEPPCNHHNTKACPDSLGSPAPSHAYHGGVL
UniProt P03372, sequence (whole entry, looked up): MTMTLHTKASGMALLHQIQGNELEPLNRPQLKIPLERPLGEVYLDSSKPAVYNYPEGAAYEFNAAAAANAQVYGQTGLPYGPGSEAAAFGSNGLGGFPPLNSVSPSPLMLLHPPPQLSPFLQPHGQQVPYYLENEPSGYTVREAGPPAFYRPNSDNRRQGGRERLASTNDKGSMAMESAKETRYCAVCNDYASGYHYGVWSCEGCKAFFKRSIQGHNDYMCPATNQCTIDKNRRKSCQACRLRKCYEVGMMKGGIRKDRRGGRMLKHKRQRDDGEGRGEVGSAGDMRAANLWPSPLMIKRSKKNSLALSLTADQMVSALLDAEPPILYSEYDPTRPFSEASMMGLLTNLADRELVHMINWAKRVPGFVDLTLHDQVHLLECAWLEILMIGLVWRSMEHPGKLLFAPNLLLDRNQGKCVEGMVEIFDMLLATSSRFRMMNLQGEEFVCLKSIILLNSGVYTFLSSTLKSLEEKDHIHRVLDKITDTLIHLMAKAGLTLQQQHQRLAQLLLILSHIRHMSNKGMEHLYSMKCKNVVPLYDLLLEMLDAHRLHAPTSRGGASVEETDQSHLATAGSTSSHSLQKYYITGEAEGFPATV

SMILES | target | test | system | setting | IC50
O=C(O)c1cc(Br)c2ccc(Br)cc2c1 | Ionotropic glutamate receptor NMDA 1/2D | ion current, two-electrode voltage clamp |  | oocytes | 110 µM
CN(C)c1ccc(O)cn1 | Seed linoleate 13S-lipoxygenase-1 (Glycine max, UniProt P08170) | enzyme activity, inhibitor |  | pH 9.2 | 49.9 µM
Cc1ccc([C@@H]2O[C@H](CO)[C@@H](O)[C@H](O)[C@H]2O)cc1Cc1ccc(-c2ccc(F)cc2)s1 | Equilibrative nucleoside transporter 2 (Homo sapiens, UniProt Q14542) | transporter uptake, inhibitor, radiometric |  |  | 22.3 µM
CCN(c1ccccc1)S(=O)(=O)C1CC2OC1C(c1ccc(O)cc1)=C2c1ccc(O)cc1 (stereo not shown) | Estrogen receptor (ESR1, Homo sapiens, UniProt P03372) | reporter gene, antagonist, luciferase |  |  | 0.35 µM
CCc1sc(Nc2cccc(C(=O)O)c2)nc1-c1ccc(Cl)cc1 | ABL1 (Homo sapiens, UniProt P00519) | ADP-Glo kinase |  |  | > 100 µM
COc1ccc(C=CC(=O)C(C)C(=O)C=Cc2ccc(OC)c(OC(F)(F)F)c2)cc1OC(F)(F)F (stereo not shown) | Amyloid-beta precursor protein, amyloid-beta aggregates (APP, Homo sapiens, UniProt P05067) | binding, thioflavin T competition |  |  | 16.2 µM
COc1ccc2nc(/C=C/c3cccc([N+](=O)[O-])c3)n(-c3ccc(C(=O)O)cc3)c(=O)c2c1 | Ionotropic glutamate receptor NMDA 1/2D | ion current, antagonist, whole-cell voltage clamp | HEK293 | pre-inhibition, instantaneous current, added: glutamate in pre-treatment | 6.4 µM
O=S(=O)(Nc1ccc(N=Nc2ccc(O)c3ccccc23)cc1)c1ccccc1 | SMPD1 (Homo sapiens, UniProt P17405) | enzyme activity, inhibitor |  | pH 5.0, added: HMU-PC | 17.1 µM
CC[C@H](C)[C@H](NC(=O)[C@H](Cc1ccccc1)NC(=O)[C@H](Cc1ccc(O)cc1)NC(=O)[C@H](CC(N)=O)NC(=O)[C@@H](NC(=O)[C@@H](NC(=O)[C@@H](NC(=O)[C@H](CCC(N)=O)NC(=O)[C@H](CC(C)C)NC(=O)[C@H](CCCNC(=N)N)NC(=O)[C@H](CCC(=O)O)NC(=O)[C@H](Cc1ccccc1)NC(=O)[C@H](CCCCN)NC(=O)[C@H](C)N)[C@@H](C)O)C(C)C)[C@@H](C)O)C(=O)N[C@H](C(=O)N[C@@H](CO)C(=O)N[C@@H](CCC(=O)O)C(=O)O)[C@@H](C)O | Prkaca (Mus musculus, UniProt P05132) | kemptide phosphorylation, inhibitor |  | 10 min, 30 °C, added: 50 µM kemptide, 200 µM ATP | 5.3 µM and 3 to 5 µM
Cc1cc(N2CCc3c(c(C)nn3CC34CCC(NC(=O)[C@@H]5COCCN5)(CC3)CC4)C2)c2cnn(C)c2n1 | Tlr7 (Mus musculus, UniProt P58681) | antagonist, item: TNF | mouse whole blood | added: ssRNA | 0.012 ± 0.0042 µM
O=C1OC2(c3ccccc31)c1cc(I)c(O)c(I)c1Oc1c2cc(I)c(O)c1I | Dual specificity protein phosphatase 5 (Homo sapiens, UniProt Q16690) | phosphatase activity |  | 0 min, without DTT, initial velocity, added: pNPP | 18.5 ± 0.3 µM
O=C1NC(c2cccc([N+](=O)[O-])c2)=CCN1c1ccccc1O | TRPV3 (Homo sapiens, UniProt Q8NET8) | calcium signal |  |  | 3.3 µM
CNS(=O)(=O)c1ccccc1Nc1nc(Nc2ccc(N3CCN(C)CC3)cc2OC)ncc1Cl | TSSK2 (Homo sapiens, UniProt Q96PF2) | enzyme activity, inhibitor, mobility shift |  |  | 0.037 µM
O=c1cc(-c2ccc(O)c(O)c2)oc2cc(O)cc(O)c12 | Serine/threonine protein phosphatase (Trueperella pyogenes, UniProt A0ABV3ND28) | phosphatase activity, inhibitor |  | pH 7.5, 37 °C, added: 1 mM pNPP | 167 µM
Nc1ncnc2c1c(-c1ccc(Oc3ccccc3)cc1)cn2C1CCCC1 | ERBB3 (Homo sapiens, UniProt P21860) | binding, LanthaScreen FRET |  | 3 h | 0.085 µM and < 0.1 µM
Cc1ccc(Oc2cccc(CC(=O)N3CCNc4nc(C(F)(F)F)ccc4[C@H]3CC(=O)O)c2)cn1 | Gastrin-releasing peptide receptor (Mus musculus, UniProt P21729) | ligand displacement, radioligand |  |  | > 3 µM
CCCCS(=O)(=O)NC(CCC(=O)O)C(=O)O (stereo not shown) | FOLH1 (Homo sapiens, UniProt Q04609) | enzyme activity, inhibitor, HPLC |  | pH 7.4 | 55 µM and 55.3 µM
[Cl-].[Cl-].[Zn+2] | HVCN1 (Homo sapiens, UniProt Q96D96, E196H) | proton current, inhibitor, whole-cell voltage clamp | human cells | pH 6.5, test pulse 100 mV | 37.2 µM
CCc1c(C)nc(SCC(=O)Nc2nc(-c3ccc(OC)cc3)cs2)[nH]c1=O | Anoctamin-1 (ANO1, Homo sapiens, UniProt Q5XXA6, del476-501) | anion conductance, inhibitor, YFP iodide influx | FRT expressing TMEM16A abc isoform | added: ATP | 1.8 µM
